# Assay results pooled from the literature.
# Protocols differ between the studies behind these lines.
# Cell line: NCI-H460
Compound,read-out,method,concentration,time,reference,quantity,value
COc1cc(CNC(=O)C[C@H](C)CCC=C(C)C)ccc1OCc1cn(-c2cccc([N+](=O)[O-])c2)nn1,,SRB,10 µM,48 h,,growth percent,62.9%
COc1ccc2c(c1)/C(=N\Nc1nnc3n1N=C(c1ccccc1)CS3)C(=O)N2,cell growth or viability,SRB,10 µM,,,inhibition,65%
CC(Cc1ccc(Cl)cc1)=C(c1ccc(Cl)cc1)c1ccc(OCCN(C)C)cc1,cell growth or viability,SRB,,,,GI50,1.22 µM
CC/C=C\C/C=C\C/C=C\C/C=C\C/C=C\C/C=C\CCC(=O)Nc1ccn(C2OC(CO)C(O)C2(F)F)c(=O)n1 (stereo not drawn),cell growth or viability,SRB,,,,GI50,0.0153 µM
COc1cc(CNC(=O)C[C@H](C)CCC=C(C)C)ccc1OCc1cn(-c2cccc(Cl)c2)nn1,,SRB,10 µM,48 h,,growth percent,88.7%
CC(=O)OC[C@H]1O[C@@H](Sc2sc(C(=O)c3ccc(C)cc3)c(N)c2-c2nc3ccccc3s2)[C@H](OC(C)=O)[C@@H](OC(C)=O)[C@H]1OC(C)=O,,SRB,10 µM,48 h,untreated,growth,108%
CC1=C(C2=C(C)C(=O)c3c(cc(O)c(O)c3Cc3ccccc3)C2=O)C(=O)c2cc(O)c(O)c(Cc3ccccc3)c2C1=O (racemic),cell growth or viability,ATP luminescence,,72 h,,EC50,0.17 µM
CCC1=C(CC)C2=[N+]3C1=Cc1c(CC)c(CC)c4[n]1[Ir-3]31([C]#[N+]c3ccc(OC)cc3)([C]#[N+]c3ccc(OC)cc3)[n]3c(c(CC)c(CC)c3=CC3=[N+]1C(=C4)C(CC)=C3CC)=C2.F[B-](F)(F)F,,,,,IC50 dark over IC50 light,phototoxicity index,24.2
CC(C)C1=C(O)C(=O)C2=C(C1=O)[C@H](O)[C@@H](O)[C@H]1C(C)(C)CCC[C@]21C,cell growth or viability,MTT,,72 h,,GI50,25 µM
COc1cc(CNC(=O)C[C@H](C)CCC=C(C)C)ccc1O,,SRB,10 µM,48 h,,growth percent,104%
Cc1ccc(S(=O)(=O)Nc2ccc(O)c3ccccc23)c(C)c1,,,5 µM,4 days,,cell growth,no effect
COc1cc(CNC(=O)C[C@H](C)CCC=C(C)C)ccc1OCc1cn(-c2ccc(Cl)c(Cl)c2)nn1,,SRB,10 µM,48 h,,growth percent,45.5%
CC(=O)OC[C@H]1O[C@@H](Sc2sc(C(=O)c3ccc(Br)cc3)c(N)c2-c2nc3ccccc3s2)[C@H](OC(C)=O)[C@@H](OC(C)=O)[C@H]1OC(C)=O,,SRB,10 µM,48 h,untreated,growth,107%
COc1cc(CNC(=O)C[C@H](C)CCC=C(C)C)ccc1OCc1cn(-c2ccc(C#N)cc2)nn1,,SRB,10 µM,48 h,,growth percent,45.8%
CCC(=C(c1ccc(Cl)cc1)c1ccc(OCCCN(C)C)cc1)c1ccc(OC)cc1,cell growth or viability,SRB,,,,GI50,1.1 µM

# Excerpt of the above:
Compound,read-out,method,concentration,time,reference,quantity,value
COc1cc(CNC(=O)C[C@H](C)CCC=C(C)C)ccc1OCc1cn(-c2ccc(C#N)cc2)nn1,,SRB,10 µM,48 h,,growth percent,45.8%
